Measured values gathered from unrelated publications.
Numbered parts are unrelated; each lists some results of a single study. Positions count from the first letter of the parent shown.

Set 1
Target: CCNA1, cyclin fold, Cln2 fusion (human)
Technique: yeast growth competition, sequencing
Matrix: yeast
Setting: weak parent motif
Relative to: not given
Direction: higher = stronger binding
Starting sequence: MASTL docking peptide (human); PMIAKNLMCELDE
For `PMIAKWLMCELDE [N6W]`, “normalised enrichment score” read -0.261.
`PMNAKNLMCELDE [I3N]`: “normalised enrichment score” -0.0338.
`PMIAKNKMCELDE [L7K]` — result for “normalised enrichment score”: 0.44.
`PMIAFNLMCELDE [K5F]` — result for “normalised enrichment score”: -0.0222.
`PMIAKNSMCELDE [L7S]` — result for “normalised enrichment score”: 0.0927.
Under “normalised enrichment score”, `PHIAKNLMCELDE [M2H]` is recorded as 0.201.
`PMICKNLMCELDE [A4C]` — result for “normalised enrichment score”: -0.0895.
Under “normalised enrichment score”, `PEIAKNLMCELDE [M2E]` is recorded as 0.244.
For `PMIAKNLMRELDE [C9R]`, “normalised enrichment score” read 0.405.
For `PMIAKNLVCELDE [M8V]`, “normalised enrichment score” read 0.235.
For `PMIAKNLMWELDE [C9W]`, “normalised enrichment score” read 0.711.
Under “normalised enrichment score”, `PMIAKNLMCMLDE [E10M]` is recorded as 0.18.
`PMIAKNLMCELTE [D12T]` — result for “normalised enrichment score”: 0.207.
`PMIAKNLMSELDE [C9S]`: “normalised enrichment score” 0.0316.
`PMIAKNLMCTLDE [E10T]` — result for “normalised enrichment score”: -0.0488.
Under “normalised enrichment score”, `PMQAKNLMCELDE [I3Q]` is recorded as -0.0599.
For `PYIAKNLMCELDE [M2Y]`, “normalised enrichment score” read 0.237.
Under “normalised enrichment score”, `PMIAKNLMCGLDE [E10G]` is recorded as -0.0302.
Under “normalised enrichment score”, `PMIANNLMCELDE [K5N]` is recorded as 0.162.
Under “normalised enrichment score”, `PMIAKNLMCEMDE [L11M]` is recorded as -0.625.
`PCIAKNLMCELDE [M2C]`: “normalised enrichment score” -0.0462.
`PMIAKNLMCEWDE [L11W]` — result for “normalised enrichment score”: 0.0843.
`PMIAKNLFCELDE [M8F]`: “normalised enrichment score” 0.0113.
For `PMIAKNLMCCLDE [E10C]`, “normalised enrichment score” read -0.0576.
`PMIAANLMCELDE [K5A]` — result for “normalised enrichment score”: 0.516.

Set 2
Target: RING finger protein unkempt homolog, zinc fingers 1-6, GST-SBP tag (UNK, Homo sapiens, UniProt Q9C0B0, residues 30-357)
Technique: RNA Bind-n-Seq
Molecule type: RNA
Matrix: in vitro
Tested at: not given
Setting: RNA with constant flanks, ends assumed
Relative to: input RNA pool
Direction: higher = stronger binding
Construct (chain): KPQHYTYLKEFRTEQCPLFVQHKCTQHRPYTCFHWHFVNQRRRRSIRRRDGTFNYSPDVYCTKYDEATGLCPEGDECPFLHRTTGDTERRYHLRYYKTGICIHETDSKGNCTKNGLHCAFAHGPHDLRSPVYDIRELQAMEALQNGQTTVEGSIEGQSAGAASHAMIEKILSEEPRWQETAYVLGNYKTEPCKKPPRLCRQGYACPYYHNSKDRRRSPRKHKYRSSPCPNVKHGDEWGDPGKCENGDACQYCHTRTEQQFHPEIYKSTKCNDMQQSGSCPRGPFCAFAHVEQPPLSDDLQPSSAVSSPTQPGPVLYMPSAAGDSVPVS
The bound/input enrichment of `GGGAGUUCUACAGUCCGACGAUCCCAACCUUUUGAUGUUGUGACUUGAAGCCUGAGAAUUGAAUGUUUUAAGUGAGUUUACAGUUCCGUGCUGGGCCACAUUCCUAGUUAUUCUGAGGUAUACGCAGCCUGCAAGCUGCGGUUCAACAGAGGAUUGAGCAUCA` is reported as 0.165 ratio.
`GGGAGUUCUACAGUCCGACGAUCCUCCUGCCGGGCGCCCGGCAGACCGAAGCGGCUCCAGUGUGCUGCUCUGCUCGGUACAACUCCGCGAUUUUGGCGUUCUGUGGUUUCUUCGUUCUCUAUGCCUUACGGGUGAACCUGAGUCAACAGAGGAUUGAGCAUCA` has a bound/input enrichment of 0.0909 ratio.
For `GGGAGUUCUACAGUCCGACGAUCCACUGGAGACUGAGCAAAAGGAAAUGUGAAACGAACAACAUGAUGGAAUAUGUCAUCCUCACCGAAUUUUUACCAAAGACACCGAUUUUUCGACCAGAUUAGCAUUUGCUUUAUUUAUAGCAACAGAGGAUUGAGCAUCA`, the bound/input enrichment was 2.7 ratio.
`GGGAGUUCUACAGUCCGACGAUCUUACAGUCAUUGAUGGACUCUAUUUUUUUAUUAUUACUUGGACCUUGGUCGUUUUUAUACCCGCAAAAUGUCUUGUUUUAAUUUGUGUUUUUUGGGGGGAGGGAGGGAGUGAACUUGCUGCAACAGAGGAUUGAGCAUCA` has a bound/input enrichment of 2.32 ratio.
`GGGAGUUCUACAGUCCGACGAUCACCAAUGAAAAUCAGAAGACUAAUACUGUGGCUAAACAGGAGCAGCGACCUAUAAAAAAGAACCGUCUCUAUUCAACAGAUUUUAUAGUGUUUAAUGACAAUGAUGGUUCAGAUGAUGAGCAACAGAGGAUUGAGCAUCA` gave a bound/input enrichment of 0.335 ratio.
The bound/input enrichment of `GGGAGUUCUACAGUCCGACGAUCGACAUUGCAGAAAAUGCUUUGAAAAAUUCCUCAGAAACAGAAAUACCUACUGUCAGCGUUUCCGCUGAUGAAGAAUUCCUUCCCUUCAAAGAAAAUACAUUUGACCUGGUGGUUAGCAGUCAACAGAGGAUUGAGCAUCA` is reported as 0.335 ratio.
For `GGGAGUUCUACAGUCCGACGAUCCGCCUGAGUACAGACGUGACUUGUAGCUUGUUGCCUAACAGGCUUACUAACCCAAGACAGUUCCGAAAAUGUAUGUUAAAUCAAUCAUUCUCGAAGGAUUCAAGUCCUAUGCACAGAGGACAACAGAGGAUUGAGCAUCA`, the bound/input enrichment was 0.127 ratio.
`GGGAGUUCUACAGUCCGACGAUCGUUGGAGAUACACAAGUGGUUGUUUUUAAGCAUGAAAAAGAAGAUGGUGCCAUUUCUACUACCGUUCUUCGAGGUUCUACAGACAAUCUGAUGGAUGACAUAGAAAGGGCAGUAGAUGAUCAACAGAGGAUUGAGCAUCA` has a bound/input enrichment of 0.649 ratio.

Set 3
Target: Prothrombin, mature alpha-thrombin (F2, Homo sapiens, UniProt P00734)
Technique: aptamer microarray, sandwich
Molecule type: DNA with 2'F-ANA
Matrix: in vitro
Tested at: 200 nM
Setting: whole 15-mer aptamer, many near background
Added: Cy3 exosite-II aptamer, 400 nM
Direction: higher = stronger binding
Strand: GGTTGGTGTGGTTGG
For `2'F-ANA at 1 3 4 5 7 8 9 11 12 14`, “mean fluorescence intensity” read 48.1 a.u.
`2'F-ANA at 2 4 5 12 13 14` — result for “mean fluorescence intensity”: 45.1 a.u.
For `2'F-ANA at 1 5 7 10 13 14`, “mean fluorescence intensity” read 74 a.u.
For `2'F-ANA at 3 4 5 8 9 10 11 14 15`, “mean fluorescence intensity” read 345 a.u.
`2'F-ANA at 1 3 4 10 12 14`: “mean fluorescence intensity” 51.1 a.u.
`2'F-ANA at 2 5 7 9 11 12 13 14` — result for “mean fluorescence intensity”: 55.1 a.u.
Under “mean fluorescence intensity”, `2'F-ANA at 3 5 10` is recorded as 53.2 a.u.
Under “mean fluorescence intensity”, `2'F-ANA at 1 4 6 10 11 14` is recorded as 50.1 a.u.
`2'F-ANA at 2 10 11 15` — result for “mean fluorescence intensity”: 127 a.u.
Under “mean fluorescence intensity”, `2'F-ANA at 2 3 8 9 11 12 13 14 15` is recorded as 451 a.u.
`2'F-ANA at 1 2 5 7 11 13 15` — result for “mean fluorescence intensity”: 55.4 a.u.
For `2'F-ANA at 4 12 13 15`, “mean fluorescence intensity” read 423 a.u.
For `2'F-ANA at 3 6 7 9 11 14 15`, “mean fluorescence intensity” read 477 a.u.
`2'F-ANA at 3 4 8 9 10 11 14`: “mean fluorescence intensity” 164 a.u.
Under “mean fluorescence intensity”, `2'F-ANA at 1 2 5 8 9 11 13 14 15` is recorded as 46.2 a.u.
`2'F-ANA at 1 12 13`: “mean fluorescence intensity” 340 a.u.
For `2'F-ANA at 1 3 5 6 8 9 14`, “mean fluorescence intensity” read 45.3 a.u.
Under “mean fluorescence intensity”, `2'F-ANA at 3 4 5 6 9 12 14 15` is recorded as 53.5 a.u.
`2'F-ANA at 1 3 4 7 10 11 12 14 15` — result for “mean fluorescence intensity”: 53.1 a.u.
`2'F-ANA at 1 2 4 7 10 11 12 14 15` — result for “mean fluorescence intensity”: 49 a.u.
For `2'F-ANA at 2 6 7 8 9 11 12 13`, “mean fluorescence intensity” read 581 a.u.
For `2'F-ANA at 2 7 9 10 11 12 13 14 15`, “mean fluorescence intensity” read 94.8 a.u.
Under “mean fluorescence intensity”, `2'F-ANA at 4 5 6 7 8 10 11 13 15` is recorded as 54 a.u.
`2'F-ANA at 2 6 7 9 11 12 13 14 15`: “mean fluorescence intensity” 157 a.u.
For `2'F-ANA at 2 3 6 7 8 13 14`, “mean fluorescence intensity” read 342 a.u.

Set 4
Target: ABI1, truncated, D143A, DHFR fusion (Arabidopsis thaliana)
Technique: DHFR PCA, deep sequencing
Matrix: yeast
Setting: methotrexate growth selection, single substitutions
Added: (+)-ABA 2500 µM
Relative to: wild-type fitted maximum
Direction: higher = stronger binding
Starting sequence: PYL1, truncated, DHFR fusion (Arabidopsis thaliana); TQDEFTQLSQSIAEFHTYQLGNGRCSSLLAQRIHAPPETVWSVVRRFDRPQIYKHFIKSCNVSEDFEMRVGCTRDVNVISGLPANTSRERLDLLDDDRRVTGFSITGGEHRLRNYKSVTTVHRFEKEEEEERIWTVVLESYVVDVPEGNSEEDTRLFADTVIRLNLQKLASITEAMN
`T160K` — result for “relative binding score”: 94.1%.
`L138N`: “relative binding score” 63.8%.
Under “relative binding score”, `G23I` is recorded as 89.6%.
`E131I` — result for “relative binding score”: 108%.
`S150W` — result for “relative binding score”: 77%.
For `E129A`, “relative binding score” read 107%.
`G21S` — result for “relative binding score”: 96.5%.
Under “relative binding score”, `E147W` is recorded as 91.1%.
Under “relative binding score”, `C60M` is recorded as 79%.
For `R74A`, “relative binding score” read -0.0421%.
`P36K` — result for “relative binding score”: 97.5%.
Under “relative binding score”, `D75C` is recorded as 94.8%.
For `I105S`, “relative binding score” read 98.2%.
Under “relative binding score”, `E130K` is recorded as 108%.
Under “relative binding score”, `I12W` is recorded as 87%.
`E152S`: “relative binding score” 98.1%.
For `V70G`, “relative binding score” read 84.9%.
Under “relative binding score”, `E38C` is recorded as 81.7%.
`L164G`: “relative binding score” 93.1%.
`N22T`: “relative binding score” 101%.

A few entries again (set 1):
`PMIAKNKMCELDE [L7K]` — result for “normalised enrichment score”: 0.44.
For `PMIAKNLMCCLDE [E10C]`, “normalised enrichment score” read -0.0576.
`PMNAKNLMCELDE [I3N]`: “normalised enrichment score” -0.0338.
Under “normalised enrichment score”, `PEIAKNLMCELDE [M2E]` is recorded as 0.244.
Under “normalised enrichment score”, `PMQAKNLMCELDE [I3Q]` is recorded as -0.0599.
`PMIAANLMCELDE [K5A]` — result for “normalised enrichment score”: 0.516.
`PMIAFNLMCELDE [K5F]` — result for “normalised enrichment score”: -0.0222.
`PMIAKNLMCEWDE [L11W]` — result for “normalised enrichment score”: 0.0843.
For `PMIAKNLMRELDE [C9R]`, “normalised enrichment score” read 0.405.
For `PMIAKNLMWELDE [C9W]`, “normalised enrichment score” read 0.711.
